Published values of several laboratories.
Lines come from different studies, so protocols differ. “And” joins repeats or separate records; there may be more than shown.
CDK7 with cyclin H, MAT1: Cyclin-dependent kinase 7, with cyclin H, MAT1 (CDK7, Homo sapiens, UniProt P50613)
Chain of UniProt P50613 (whole entry, unmodified, looked up): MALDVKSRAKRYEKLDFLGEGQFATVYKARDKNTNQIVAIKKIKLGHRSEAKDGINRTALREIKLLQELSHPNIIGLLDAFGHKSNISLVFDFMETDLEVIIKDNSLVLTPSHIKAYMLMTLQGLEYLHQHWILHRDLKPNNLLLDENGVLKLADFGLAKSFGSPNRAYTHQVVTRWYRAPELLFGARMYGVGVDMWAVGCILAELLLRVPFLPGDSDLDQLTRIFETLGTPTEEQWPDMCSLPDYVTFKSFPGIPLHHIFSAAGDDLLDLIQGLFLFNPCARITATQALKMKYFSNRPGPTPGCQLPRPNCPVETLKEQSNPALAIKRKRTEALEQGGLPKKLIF
CDK7: Cyclin-dependent kinase 7 (CDK7, Homo sapiens, UniProt P50613)
CDK7 with cyclin H: Cyclin-dependent kinase 7, with cyclin H (CDK7, Homo sapiens, UniProt P50613)

CCn1cc(C(=O)O)c(=O)c2c(N)c(F)c(NC3CCCCC3)cc21 — inhibition (CDK7 with cyclin H, MAT1; kinase activity; 0.1 µM, with: ATP at Km): -21.3%
CS(=O)(=O)Nc1cccc(-c2csc3cnc(Nc4ccc(N5CCN(CCCCCOc6cccc7c6C(=O)N(C6CCC(=O)NC6=O)C7=O)CC5)cc4)nc23)c1 (stereo not drawn) — inhibition (CDK7; probe labelling, inhibitor, KiNativ chemoproteomics; MOLT-4; 1 µM): 46.6%
COc1cc(Nc2nc(C)cc(-c3cnn4nc(OC)ccc34)n2)cc(C(F)(F)F)c1 — remaining activity (CDK7; inhibitor; 1 µM; reference: control): 73%
O=c1c(-c2ccc(Cl)c(CN3CCOCC3)c2)coc2cc(O)ccc12 — remaining activity (CDK7; enzyme activity, inhibitor; 1 µM): 110%
CN1CC[C@@H](COc2cnc(C#N)cc2-c2ccn3nc(NC(=O)C4CC4)cc3c2)C1 — inhibition (CDK7 with cyclin H, MAT1; inhibitor, KinaseProfiler panel; 1 µM): 0%
CN1CCN(Cc2ccc(NC(=O)c3cccc(C#Cc4cnc(N)c5ncccc45)c3)cc2C(F)(F)F)CC1 — remaining binding (CDK7; cell-free assay, competition with immobilised ligand; 50 nM): 58%
Nc1ncc(-c2cc(-c3cnn(CC(F)(F)F)c3)ncc2F)nc1C(=O)NC1CNCC(F)C1 (stereo not drawn) — remaining activity (CDK7; enzyme activity; 1 µM; reference: DMSO control): 53.8%
Cc1ccc(C(=O)NC(C)c2cccc(-c3ccncc3)c2)cn1 (stereo not drawn) — remaining binding (CDK7; cell-free assay, competition with immobilised ligand; 10 µM): 30%
CN1CCN(Cc2ccc(-c3ccc(CO[C@H]4CCC[C@@H]4NC(=O)c4cc(-c5cnn(C)c5)cnc4N)cc3)cc2)CC1 — inhibition (CDK7 with cyclin H, MAT1; SelectScreen kinase profiling; 0.1 µM): 11%
C=CC(=O)Nc1cccc(-c2cnc3[nH]cc(C(=O)NC(C)(C)C)c3n2)c1 — inhibition (CDK7; kinase activity; 0.1 µM): 3% and 5%
O=c1cc(-c2cccc(O)c2)oc2c1ccc1occc12 — inhibition (CDK7 with cyclin H; enzyme activity, inhibitor, ADP detection; 10 µM): 63.8%
COc1ccc(C(=O)/C=C/c2ccccc2-c2c[nH]c3ccc(C#N)cc23)c(O)c1 — inhibition (CDK7 with cyclin H; enzyme activity, inhibitor; 20 µM): -15%
CNC1C[S+]2CC[S+]3CC[S+](C1)[Ru-4]321([N]=C=S)[n]2c3ccc(OC)cc3c3c4c(c5cc(F)c[n+]1c5c32)C(=O)NC4=O (stereo not drawn) — remaining binding (CDK7; KinomeScan; 0.1 µM; reference: untreated): 96%
NC(=O)[C@@H](O)C[C@H]1CCc2sc3ncnc(O[C@H]4CC[C@H](N5CCOCC5)CC4)c3c21 — inhibition (CDK7 with cyclin H; enzyme activity, inhibitor; 10 µM): 9%
CC(=O)N1c2ccc(-c3ccc(CNC(=O)c4cn5cc(-c6cnc(N)nc6)nc(N6CCOCC6)c5n4)cc3)cc2CC[C@@H]1C — remaining binding (CDK7; KINOMEscan; 10 µM): 89%
Nc1ncc2c(n1)-c1c([nH]c3ccc(C4=CCOCC4)cc13)CCC2 — remaining binding (CDK7; binding, competition with immobilised ligand; 1 µM): 47%
O=C(O)CCC(=O)c1cccc(NS(=O)(=O)c2c[nH]c3ncccc23)c1 — remaining activity (CDK7; kinase activity, radiometric; 10 µM): 85%
C#CCOC(=O)[C@]1(C)C=C(C(=O)OC(C)(C)C)C(=O)CC1 — normalized luminescence (CDK7 with cyclin H, MAT1; kinase activity, Kinase-Glo; concentration not given): 0.0366
CC(C)=CC1OC(C)(C)C2C=C3C(=O)C(Cl)=CC(O)C3C3C(O)C4OC4C(=O)C132 (stereo not drawn) — remaining binding (CDK7; cell-free assay, competition with immobilised ligand; 10 µM): 76%
Cc1cccc(O[C@H]2CCC[C@@H](C(C)CNCc3ccncc3)C2)c1 (relative stereo) — inhibition (CDK7; enzyme activity, inhibitor; 10 µM): 2%
C=CC(=O)N1CCc2ccc(-n3c(=O)ccc4cnc5ccc(-c6cnn(C)c6)cc5c43)cc21 — remaining binding (CDK7; KINOMEscan; 1 µM; reference: DMSO control): 56%
CN1C[C@@H](c2c[nH]c3cc(Br)ccc23)NC[C@@H]1c1c[nH]c2cc(Br)ccc12 — remaining activity (CDK7 with cyclin H; enzyme activity, inhibitor; 10 µM): 101%
COc1ccc(NC(=O)Nc2ccc3c(c2)C(=O)N(C(C)CO)CC(C)C(CN(C)Cc2ccc4c(c2)OCO4)O3)cc1 (stereo not drawn) — remaining activity (CDK7; kinase activity, KinaseProfiler; 0.03 µM, species human; reference: control): 97%
C=C1CCCCCCCCCC(CO)C1=O (stereo not drawn) — remaining binding (CDK7; cell-free assay, competition with immobilised ligand; 10 µM): 99%
C=CC(=O)N1CCCC(n2c(=O)c3ncccc3n(Cc3ccc(Oc4ccccc4)cc3)c2=O)C1 (stereo not drawn) — remaining binding (CDK7; cell-free assay, competition with immobilised ligand; 1 µM): 85%
O=c1cc(-c2ccc(O)cc2)oc2c1ccc1occc12 — inhibition (CDK7 with cyclin H; enzyme activity, inhibitor, ADP detection; 10 µM): 71.3%
Cc1ccc(-c2c(/C=C(\C#N)C(=O)NC(C)C)n(CCCO)c3ncnc(N)c23)cc1 — remaining binding (CDK7; cell-free assay, competition with immobilised ligand; 1 µM): 100%

For quick reference, copied from above:
COc1cc(Nc2nc(C)cc(-c3cnn4nc(OC)ccc34)n2)cc(C(F)(F)F)c1 — remaining activity (CDK7; inhibitor; 1 µM; reference: control): 73%
O=c1cc(-c2cccc(O)c2)oc2c1ccc1occc12 — inhibition (CDK7 with cyclin H; enzyme activity, inhibitor, ADP detection; 10 µM): 63.8%
CCn1cc(C(=O)O)c(=O)c2c(N)c(F)c(NC3CCCCC3)cc21 — inhibition (CDK7 with cyclin H, MAT1; kinase activity; 0.1 µM, with: ATP at Km): -21.3%
